Assay results collected from several papers.
± marks the error that the study gave.
Sequence of UniProt P10632 (whole entry, looked up): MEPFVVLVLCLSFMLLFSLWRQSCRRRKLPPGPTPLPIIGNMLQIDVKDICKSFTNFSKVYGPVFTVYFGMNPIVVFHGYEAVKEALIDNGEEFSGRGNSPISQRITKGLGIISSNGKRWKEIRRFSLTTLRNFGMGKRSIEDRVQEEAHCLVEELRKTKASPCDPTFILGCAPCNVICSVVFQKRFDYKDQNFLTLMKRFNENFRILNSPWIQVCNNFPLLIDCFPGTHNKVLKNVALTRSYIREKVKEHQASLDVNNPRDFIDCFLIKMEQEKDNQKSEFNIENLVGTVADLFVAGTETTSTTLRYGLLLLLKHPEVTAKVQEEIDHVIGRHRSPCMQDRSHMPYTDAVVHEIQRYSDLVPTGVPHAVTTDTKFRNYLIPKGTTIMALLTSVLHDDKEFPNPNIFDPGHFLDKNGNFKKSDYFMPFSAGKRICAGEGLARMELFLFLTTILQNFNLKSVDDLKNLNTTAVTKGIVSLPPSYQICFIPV
Sequence of UniProt O75469 (whole entry, looked up): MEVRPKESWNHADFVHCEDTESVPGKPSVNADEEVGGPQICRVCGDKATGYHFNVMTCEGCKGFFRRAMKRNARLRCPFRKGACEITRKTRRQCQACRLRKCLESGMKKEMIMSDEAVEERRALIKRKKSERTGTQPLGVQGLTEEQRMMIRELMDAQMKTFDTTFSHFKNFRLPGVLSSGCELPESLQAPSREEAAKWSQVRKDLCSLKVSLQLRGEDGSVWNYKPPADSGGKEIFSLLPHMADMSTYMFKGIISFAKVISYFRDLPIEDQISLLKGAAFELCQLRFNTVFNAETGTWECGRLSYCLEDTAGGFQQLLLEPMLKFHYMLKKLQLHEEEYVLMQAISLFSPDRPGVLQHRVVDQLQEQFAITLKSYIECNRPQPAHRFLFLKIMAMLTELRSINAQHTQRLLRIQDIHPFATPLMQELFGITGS

C=CC(=O)Nc1cc(Nc2nccc(-c3cn(C)c4ccccc34)n2)c(OCC(F)(F)F)nc1N(C)CCNC
contribution to metabolite formation (Cytochrome P450 2C8 (CYP2C8, Homo sapiens, UniProt P10632); substrate; 3 µM, 60 min, 2C8 isoform, liver abundance-normalized): 6.46%

COC(=O)Nc1nc2cc(C(O)c3ccc(F)cc3)ccc2[nH]1 (centres unmarked)
revertants (Salmonella typhimurium; Ames preincubation test; TA1535; 109.4 µg/plate, without S9): 19 revertants/plate

CC(C)Cc1ccc(C(C)C(=O)N[C@@H](CCCCNC(=O)CCOCCOCCOCCOCCOCCOCCNC(=O)CN2CCN(CC(=O)[O-])CCN(CC(=O)[O-])CCN(CC(=O)[O-])CC2)C(=O)Nc2cccc3c(C(=O)NCC(=O)N4CC(F)(F)C[C@H]4C#N)ccnc23)cc1.[177Lu+3] (some centres unmarked)
tracer uptake (U-87 MG tumour model; host not given, bone; 1 h, tumour-bearing): 10.2 %ID/g

N#Cc1ccnc(N2C(=O)CC[C@H]2C(=O)N(c2cc(F)cc(F)c2)[C@H](C(=O)NC2CC(F)(F)C2)c2ccccc2Cl)c1 (stereo in doubt)
activation (NR1I2 (Homo sapiens, UniProt O75469); reporter gene, agonist; 10 µM; reference: rifampicin): 70%

COCC1CN(C2CCN(c3cc(OC)c(Nc4ncc(Br)c(Nc5ccc6c(c5P(C)(C)=O)OCCO6)n4)cc3C)CC2)C1
Tmax (EGFR-mutant NSCLC patients, plasma; oral, 90 mg single dose, median): 2 h

C=C(NC(=O)c1csc(-c2nc3c(cc2O)-c2nc(cs2)C(=O)NC(C(C)O)C(=O)NC(=C(C)OC)c2nc(cs2)C(=O)NC2c4nc(cs4)C(=O)NC(COC(=O)c4c5c6c(cccc6n4O)COC(=O)C(OC4CC(C)(O)C(N(C)C)C(C)O4)C2OC5)c2nc-3cs2)n1)C(N)=O (centres unmarked)
AUC(0-t) (ICR mice, Streptococcus pneumoniae ATCC 49169 infected, immunocompromised, blood; intravenous, 32 mg/kg/day twice daily): 1730 ng·h/mL

CC(C)OCCOCc1ccc(OCC(O)CN(N=O)C(C)C)cc1 (centres unmarked)
revertant fold increase (Salmonella typhimurium; Ames test; TA1537; 15.8 µg/plate, 30 % rat S9; reference: solvent control): 1.3 fold

COc1cccc(OC)c1-c1cc(C(=O)NC2(C(=O)O)C3CC4CC(C3)CC2C4)nn1-c1ccc(C(=O)N(C)CCCN(C)C(=O)[C@H](CCCCNC(=O)[C@H](CC(C)C)NC(=O)C2OC2C(=O)O)NC(=O)CN2CCN(CC(=O)[O-])CCN(CC(=O)[O-])CCN(CC(=O)[O-])CC2)cc1C(C)C.[177Lu+3] (mixture of isomers)
tracer uptake (HT-29 tumour model; host not given, pancreas; 4 h, tumour-bearing): 0.47 %ID/g

O=C1C2CC3CC1CC(C(=O)N1CCN(c4ccc([N+](=O)[O-])c5ncccc45)CC1)(C3)C2
revertant colony count (Escherichia coli; Ames test; WP2 uvrA pKM101; 0.05 µg/well, with S9 activation): 27 colonies/well

CCN(CC)CC#CCNc1ccnc2cc(Cl)ccc12
revertants per well (Salmonella typhimurium; mini-Ames test; TA1535; 125.0 µg/well, without S9): 1

CC[C@H](C)[C@H](NC(=O)[C@H](Cc1ccccc1)NC(=O)[C@H](CCC(=O)O)NC(=O)[C@H](CCCCN)NC(=O)[C@H](C)NC(=O)[C@H](C)NC(=O)[C@H](CCC(N)=O)NC(=O)CNC(=O)[C@H](CCC(=O)O)NC(=O)[C@H](CC(C)C)NC(=O)[C@H](Cc1ccc(O)cc1)NC(=O)[C@H](CO)NC(=O)[C@H](CO)NC(=O)[C@@H](NC(=O)[C@H](CC(=O)O)NC(=O)[C@H](CO)NC(=O)[C@@H](NC(=O)[C@H](Cc1ccccc1)NC(=O)[C@@H](NC(=O)CNC(=O)[C@H](CCC(=O)O)NC(=O)[C@H](C)NC(=O)[C@@H](N)Cc1c[nH]cn1)[C@@H](C)O)[C@@H](C)O)C(C)C)C(=O)N[C@@H](C)C(=O)N[C@@H](Cc1c[nH]c2ccccc12)C(=O)N[C@@H](CC(C)C)C(=O)N[C@H](C(=O)N[C@@H](CCCCN)C(=O)NCC(=O)N[C@@H](CCCN=C(N)N)C(=O)NCC(=O)O)C(C)C
remaining peptide (DPP-4 (recombinant); substrate, LC-MS; 500 µM, 12 h): ~73%

N#C[C@@H]1CC(F)(F)CN1C(=O)CNC(=O)c1ccnc2c(NC(=O)CCOCCOCCOCCOCCOCCOCCNC(=O)[C@H](CCCCNC(=O)CN3CCN(CC(=O)[O-])CCN(CC(=O)[O-])CCN(CC(=O)[O-])CC3)NC(=O)CCCc3ccc(I)cc3)cccc12.[177Lu+3]
tracer uptake (U-87 MG tumour model; host not given, liver; 1 h, tumour-bearing): 2.89 %ID/g

CC[C@H](C)[C@H](NC(=O)C[C@H](NC(=O)CN1CCN2CCN(CC1)CC(=O)[O][Al]([18F])[O]C(=O)C2)C(=O)O)C(=O)N[C@H]1CCc2cccc3c2N(C1=O)[C@H](C(=O)NCc1cn[nH]n1)C3
tracer uptake (MC-38 tumour model; host not given, tumour; 30 min, tumour-bearing): 0.86 %ID/g

CNC(=O)C1CCCN(C(=O)C2CC3CCC2N3C(=O)[C@@H]2C[C@@H](O)CN2C(=O)NCc2cccc(Cl)c2F)C1 (mixture of isomers)
6β-hydroxytestosterone formation (CYP3A4 (human); inhibitor, time-dependent inhibition; 0.617 µM, preincubated without NADPH, together with: testosterone substrate): 173 ng/mL

O=C1NC2(CC2)COc2ncc(F)cc2[C@H]2COCCN2c2ccn3ncc1c3n2
revertant colonies (Salmonella typhimurium; Ames test; TA98; 500 µg/plate, 48 h, together with: without S9): 10 ± 1 revertants/plate

N#C[C@@H]1CC(F)(F)CN1C(=O)CNC(=O)c1ccnc2c(NC(=O)[C@H](CCCCNC(=O)CCOCCOCCOCCOCCOCCOCCNC(=O)CN3CCN(CC(=O)[O-])CCN(CC(=O)[O-])CCN(CC(=O)[O-])CC3)NC(=O)CCCc3ccc(I)cc3)cccc12.[177Lu+3]
tracer uptake (U-87 MG tumour model; host not given, stomach; 72 h, tumour-bearing): 0.2 %ID/g

N=C(N)NCCC[C@@H]1NC(=O)[C@H](CCCNC(=N)N)NC(=O)[C@@H](CCCNC(=N)N)NC(=O)[C@@H](CCCNC(=N)N)NC(=O)[C@@H](C(c2ccccc2)c2ccccc2)NC(=O)[C@H](Cc2c[nH]c3ccccc23)NC(=O)[C@@H](C(c2ccccc2)c2ccccc2)NC1=O
viability (HEKa; cell growth or viability, MTS; 200 µg/mL, 24 h): 64 to 69%
